# Results pooled from the literature.
# Chain of UniProt O60894 (whole entry, looked up): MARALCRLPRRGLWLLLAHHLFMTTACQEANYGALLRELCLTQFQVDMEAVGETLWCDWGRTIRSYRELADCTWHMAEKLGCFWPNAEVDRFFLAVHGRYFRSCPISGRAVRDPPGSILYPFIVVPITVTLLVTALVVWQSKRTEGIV
# Chain of UniProt Q16602 (whole entry, looked up): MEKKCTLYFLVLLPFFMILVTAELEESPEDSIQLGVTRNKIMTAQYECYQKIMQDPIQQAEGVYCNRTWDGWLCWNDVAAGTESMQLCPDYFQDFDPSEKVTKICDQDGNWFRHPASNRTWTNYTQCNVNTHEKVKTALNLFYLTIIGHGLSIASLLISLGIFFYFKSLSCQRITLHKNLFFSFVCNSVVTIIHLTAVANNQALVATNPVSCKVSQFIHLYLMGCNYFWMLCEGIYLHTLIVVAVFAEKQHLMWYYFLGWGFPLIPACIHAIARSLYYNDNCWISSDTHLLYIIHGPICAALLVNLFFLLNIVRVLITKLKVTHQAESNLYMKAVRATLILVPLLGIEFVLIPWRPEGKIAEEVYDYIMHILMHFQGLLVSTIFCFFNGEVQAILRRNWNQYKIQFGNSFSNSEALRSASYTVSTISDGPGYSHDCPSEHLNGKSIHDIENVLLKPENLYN
SMILES,tested on,test,conditions,scale,endpoint,value
CC(=O)NC(c1ccc(C(C)C)cc1)c1ccc2cccnc2c1O (centres unmarked),human cells,,,,CC50,> 20 µM
COc1cc(Nc2ncc(F)c(Nc3ccc4c(n3)NC(=O)C(C)(C)O4)n2)cc(OC)c1OC,"Calcitonin-gene-related peptide receptor, CALCRL/RAMP1 (Homo sapiens, UniProt O60894+Q16602)",,,,IC50,> 10 µM
CC(=O)O[C@H]1C[C@H](O[C@H]2[C@@H](O)C[C@H](O[C@H]3[C@@H](O)C[C@H](O[C@H]4CC[C@@]5(C)[C@H](CC[C@@H]6[C@@H]5C[C@@H](O)[C@]5(C)[C@@H](C7=CC(=O)OC7)CC[C@]65O)C4)O[C@@H]3C)O[C@@H]2C)O[C@H](C)[C@H]1O[C@@H]1O[C@H](CO)[C@@H](O)[C@H](O)[C@H]1O,primary human fibroblasts uninfected,live/dead staining,"48 h, capped at 10.00 µM",,CC50,> 10 µM
CC(C)C[C@H](NC(=O)OCc1ccccc1)C(=O)N[C@@H](CC(C)C)C(=O)N[C@@H](CC1CCNC1=O)C(=O)C(=O)NC1CC1 (some centres unmarked),HCT-8,,5 (unit not given),,CC50,> 250 µM
CC(C)(C)c1cnc(CSc2cnc(NC(=O)C3CCN(CC(=O)NCCOCCOCCOCCNc4cccc5c4C(=O)N(C4CCC(=O)NC4=O)C5=O)CC3)s2)o1 (centres unmarked),human cells,,,,CC50,> 20 µM
O=c1c2ccccc2[se]n1-c1ccccc1,human cells,cytotoxicity,48 (unit not given),,CC50,25 µM
O=C(Cc1c(F)cccc1Cl)Nc1nc(-c2ccncc2)cs1,human cells,,,,CC50,> 20 µM
C[C@H]1CN(c2n[nH]c3nc(N[C@H]4CC[C@H](NS(=O)(=O)CCC(F)(F)F)CC4)ncc23)CCO1,"PRKACA (Homo sapiens, UniProt P17612)","inhibitor, Kinobeads competition profiling",0.032 µM,reference: vehicle,relative abundance,0.92
COc1cccc(Nc2nc(NCC3CCCO3)c3ccccc3n2)c1 (centres unmarked),human cells,,,,CC50,16.3 µM
COc1cc(-n2sc3ccccc3c2=O)ccc1F,TZM-bl,viability,,,CC50,> 100 µM
COC(=O)C1CCN(C(=O)c2ccc(NCc3cnc4nc(N)nc(N)c4n3)cc2)CC1,THP-1-derived macrophages,MTT,,,CC50,> 100 µM
O=c1c2ccccc2sn1-c1ccc(F)c(F)c1,TZM-bl,viability,,,CC50,33 µM
COC(=O)C1CCN(C(=O)c2ccc(N(C)Cc3cnc4nc(N)nc(N)c4n3)cc2)CC1,THP-1-derived macrophages,MTT,,,CC50,> 100 µM
CSCC[C@H](NC(=O)[C@@H](N)Cc1ccc(O)cc1)C(=O)N[C@@H](Cc1ccc(O)cc1)C(=O)N[C@H](C(=O)N[C@@H](CCCCN)C(=O)N[C@@H](Cc1ccccc1)C(=O)N[C@@H](Cc1c[nH]cn1)C(=O)N[C@H](C(=O)N[C@@H](Cc1ccc(O)cc1)C(=O)O)[C@@H](C)O)[C@@H](C)O,"HLA class I histocompatibility antigen, A alpha chain, allele A*01:01 (Homo sapiens, UniProt P04439)",binding,,,IC50,6.74 µM
CC(=O)N[C@H](C(=O)N1C[C@H](O)C[C@H]1C(=O)NCc1ccc(-c2scnc2C)cc1)C(C)(C)C,SNU-C4 HiBiT-PXR knock-in,CellTiter-Glo,"72 h, 10% FBS",,CC50,> 30 µM
S=C(NCc1ccc2c(c1)OCO2)N1CCN(c2ncnc3c2oc2ccccc23)CC1,human cells,,,,CC50,7.2 µM
CN(C)CCCSc1ccccc1NC(=O)/C=C/c1ccccc1,human cells,cytotoxicity,48 (unit not given),,CC50,67 µM
Nc1ccn(C[C@@H](CO)OCP(=O)(O)O)c(=O)n1,human cells,,3 (unit not given),,CC50,> 317 µM
CSCC[C@H](NC(=O)[C@@H](N)Cc1ccc(O)cc1)C(=O)N[C@@H](CC(=O)O)C(=O)N1CCC[C@H]1C(=O)N[C@H](C(=O)N1CCC[C@H]1C(=O)N[C@@H](CC(C)C)C(=O)N[C@@H](CCC(N)=O)C(=O)N[C@@H](Cc1ccccc1)C(=O)O)C(C)C,"HLA class I histocompatibility antigen, A alpha chain, allele A*02:01 (Homo sapiens, UniProt P04439)",binding,,,IC50,0.516 µM
C[S+](C)[O-],Vero-B4,MTS,4 days,,CC50,2.4%

# A few entries again:
SMILES,tested on,test,conditions,scale,endpoint,value
COc1cccc(Nc2nc(NCC3CCCO3)c3ccccc3n2)c1 (centres unmarked),human cells,,,,CC50,16.3 µM
COc1cc(-n2sc3ccccc3c2=O)ccc1F,TZM-bl,viability,,,CC50,> 100 µM
COC(=O)C1CCN(C(=O)c2ccc(NCc3cnc4nc(N)nc(N)c4n3)cc2)CC1,THP-1-derived macrophages,MTT,,,CC50,> 100 µM
